# Measurements gathered from unrelated publications.
# Each line is one published result; not all experiments were run side by side. Several values in a cell are separate wells, animals, samples, runs or records. Numbers after ± are the reported error.
# Chain of UniProt P04062 (whole entry, unmodified, looked up): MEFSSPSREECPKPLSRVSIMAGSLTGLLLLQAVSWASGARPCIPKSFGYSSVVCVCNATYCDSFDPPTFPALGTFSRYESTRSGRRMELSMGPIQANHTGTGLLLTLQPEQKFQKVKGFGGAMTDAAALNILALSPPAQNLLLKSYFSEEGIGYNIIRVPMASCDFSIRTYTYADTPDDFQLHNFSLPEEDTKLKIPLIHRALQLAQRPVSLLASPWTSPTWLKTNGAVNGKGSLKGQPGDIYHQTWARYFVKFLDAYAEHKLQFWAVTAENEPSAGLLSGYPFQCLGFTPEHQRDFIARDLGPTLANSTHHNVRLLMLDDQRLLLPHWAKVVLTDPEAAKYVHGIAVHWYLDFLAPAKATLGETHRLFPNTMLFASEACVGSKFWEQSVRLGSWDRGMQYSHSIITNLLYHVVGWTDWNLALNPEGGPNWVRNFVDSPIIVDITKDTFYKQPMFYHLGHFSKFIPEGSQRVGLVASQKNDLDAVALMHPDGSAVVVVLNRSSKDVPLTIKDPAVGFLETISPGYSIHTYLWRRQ
Structure (SMILES),target or system,assay,test system,setting,how to read,measurement,value
CN([O-])C(=O)CN1CCN(CC(=O)N(C)[O-])CCN(Cc2ccccn2)CC1.[89Zr+4],,,"mouse, bone","intravenous, 1 h",,tracer uptake,2.76 %ID/g
O=c1c2ccccc2[se]n1CCCCCCn1[se]c2ccccc2c1=O,,"shake-flask, RP-HPLC",Tween 80,"24 h, 25 °C",,solubility,510 ± 20 µg/mL
CC(=O)N([O-])CCCCCNC(=O)CCC(=O)N([O-])CCCCCNC(=O)CCC(=O)N([O-])CCCCCN.[89Zr+4],,,PBS,"3 days, pH 7, 37 °C",,intact compound,99.9 ± 0.1%
CNc1cc(N)c(C(N)=O)cn1,,,"Han Wistar rats, male, plasma","oral, 30 mg/kg, 1.50 h",,concentration at time,22.4 µM
CC[C@H](C)[C@H](NC(=O)[C@H](CCC(N)=O)NC(=O)[C@H](CC(C)C)NC(=O)[C@H](CC(N)=O)NC(=O)[C@H](Cc1c[nH]cn1)NC(=O)[C@H](CCCCN)NC(=O)[C@@H](NC(=O)[C@@H](N)C(C)C)[C@@H](C)O)C(=O)N[C@@H](COP(=O)(O)O)C(=O)N[C@@H](CCC(N)=O)C(=O)N[C@@H](COP(=O)(O)O)C(=O)N[C@@H](Cc1ccc(O)cc1)C(=O)O,,"metabolic stability, mass spectrometry","mouse, liver microsomes",1 h,,compound remaining,≥ 95%
O=c1c2sccc2n(CC2COc3ccccc3O2)c(=O)n1O (stereo not shown),,,Caco-2,10 µM,,Papp A→B,13.1 ×10⁻⁶ cm/s
CCCCN1C(=O)c2cccc3c(NCCCCCCCCCCN4CCOCC4)ccc(c23)C1=O,,,acetonitrile,,,fluorescence quantum yield,0.92
CCCCCCCOc1ccc(CC[C@](N)(CO)COP(=O)(O)O)cc1C(F)(F)F,,,"healthy male humans, plasma","oral, 0.5 mg amiselimod, day 1, mean",,Cmax,1.19 ng/mL
COCC1CN(C2CCN(c3cc(OC)c(Nc4ncc(Br)c(Nc5ccc6c(c5P(C)(C)=O)OCCO6)n4)cc3C)CC2)C1,,first-in-human trial,human,"oral, 90 mg once daily",treatment-related leading to permanent discontinuation,adverse events,0%
Fc1cccc(-n2cc(-c3ccccc3)nc2NCc2ccc(C(F)(F)F)c(F)c2)c1,,,"CD-1 mice, male, intestine","intraperitoneal, 25 mg/kg, single dose",,AUC(0-last),173000 ng·h/mL
C=CC(=O)Nc1cc(Nc2nccc(-c3c[nH]c4ccccc34)n2)c(OC)cc1N(C)CCN(C)C,,storage stability,human plasma,"72 h, on ice, LLOQ level",,recovery,71.1%
CN(C)S(=O)(=O)c1ccc(S(=O)(=O)N2CCC(n3c(=O)[nH]c4ccccc43)CC2)cc1,,,mouse,"intraperitoneal, 6 mg/kg, 7 day",baseline: day 0,body weight,103%
Cc1cc(C(=O)N(C)CC2CCCN(CCc3ccc(F)cc3)C2)c(C)o1 (stereo not shown),Trypanosoma cruzi,"reporter mRNA translation, inhibitor, refers to: capped polyadenylated Renilla luciferase mRNA",cell-free extract,concentration not given,baseline: control RNA,relative translation,108%
C=C(NC(=O)c1csc(-c2nc3c(cc2O)-c2nc(cs2)C(=O)NC(C(C)O)C(=O)NC(=C(C)OC)c2nc(cs2)C(=O)NC2c4nc(cs4)C(=O)NC(COC(=O)c4c5c6c(cccc6n4O)COC(=O)C(OC4CC(C)(O)C(N(C)C)C(C)O4)C2OC5)c2nc-3cs2)n1)C(N)=O (stereo not shown),,,"ICR mice, Streptococcus pneumoniae ATCC 49169 infected, immunocompromised, blood","intravenous, 16 mg/kg/day three times daily",,half-life,2.53 h
O=C(Nc1cnccc1-c1ccc([18F])cc1)c1ccnc(NC(=O)C2CC2)c1,,,"mice, transgenic, GSK-3β, early-stage, heart","intravenous, dose not given, 120 min, with: tariquidar 15 mg/kg i.v. pre-dose",,SUV,0.31
Cc1c(Cc2cc(Cl)cc(O[C@H](C)C(=O)O)c2)c2ccc(C(=O)N[C@@H](C)c3ccc(C(C)(C)C)cc3)cc2n1CC(C)C,,,human liver microsomes,,,half-life,0.933 h
CN(O)C(=O)CCC(=O)NCCCN(CCCCN(CCCNC(=O)CCC(=O)N(C)O)C(=O)CCC(=O)N(C)O)C(=O)CCC(=O)N(C)O.[89Zr],,radio-TLC,aqueous buffer,"5 d, pH 5, 37 °C, 89Zr-labelled complex, with: DTPA 1000-fold excess",,intact complex,83.2 ± 1.7%
CC(C)(O)c1ncc([S@](N)(=O)=NC(=O)Nc2c3c(cc4c2CCC4)CCC3)s1,,refers to: Gastrointestinal disorders,healthy human volunteers,"oral, dose not given, single dose, all active arms",,subjects with adverse events,17%
Cn1c2cc([S+](C)[O-])sc2c2cnn(Cc3cccc(N)c3)c(=O)c21 (stereo not shown),,,"male BALB/c mouse, plasma","oral, 10 mg/kg, single dose",,AUC(0-t),24300 ng·h/mL
C=CC(=O)Nc1cc(Nc2nccc(-c3cn(C)c4ccccc34)n2)c(OC)cc1N(C)CCNC,,,human plasma,"24 h, storage stability, medium QC sample",,recovery,59.8%
N#Cc1cccc(-c2ccc3ncc(-c4cc(F)cc(F)c4)c(N4CCC(NC(=O)OC5OC(C(=O)O)C(O)C(O)C5O)CC4)c3c2)c1O (stereo not shown),,,"human, faeces","oral, 20 mg, 120 h, 14C-paltusotine dosed",,radioactivity recovered,2.5 %dose
O=C(Nc1cnccc1-c1ccc([18F])nc1)c1ccnc(NC(=O)C2CC2)c1,,ex vivo gamma counting,"GSK-3β transgenic mice, early-stage, cerebellum","intravenous, 120 min, mean, P-gp inhibitor pretreatment, with: tariquidar 15 mg/kg iv",,SUV,0.069
C/C(N)=N/C(=N\S(=O)(=O)c1ccc(C(F)(F)F)cc1)N1C[C@H](c2ccccc2)C(c2ccc(Cl)cc2)=N1,,,"C57BL/6 mouse, plasma","intravenous, 10 mg/kg",,AUC(0-inf),10500 ng·h/mL
CN1CCCNC(=O)c2cccc(c2)C(=O)NCCCN(C)CCCNc2cccc3c2C(=O)c2cccc(c2C3=O)NCCC1,,,mouse xenograft model,"dose not given, day 10",,body weight,27 g and 29 g
OC[C@@H]1[C@@H](O)[C@H](O)[C@@H](O)CN1CCCCCOCC(COCCCCCN1C[C@H](O)[C@@H](O)[C@H](O)[C@H]1CO)C12CC3CC(CC(C3)C1)C2,"Lysosomal acid glucosylceramidase (GBA1, Homo sapiens, UniProt P04062, R534H)","inhibitor, 4MU-β-D-glucopyranoside",,with: 4MU-β-D-glucopyranoside,,IC50,380 nM
COc1ccc(Nc2nc(Nc3ccc(OCCOCCOCC[18F])cc3)ncc2Br)cc1,,,"ICR mice, S180 tumour","intravenous, 370 kBq, 15 min",baseline: tumour over muscle,uptake ratio,1.1
Cc1nn(-c2nc3c(F)cc(F)cc3s2)c(O)c1C(c1ccc(C(F)(F)F)cc1)c1c(C)nn(-c2nc3c(F)cc(F)cc3s2)c1O,,,"ICR mouse, plasma","oral, 50 mg/kg",,"apparent terminal volume of distribution (Vz/F, observed)",0.65 L/kg and 1.11 L/kg and 0.569 L/kg
OC1(C(F)(F)F)CCN(c2nc(Nc3ccnc(C(F)(F)F)c3)nc(-c3cccc(C(F)(F)F)n3)n2)C1 (stereo not shown),,,"monkey, blood","oral, 10 mg/kg",,AUC(0-t),143000 ± 14300 ng·h/mL
CC(C)OCCOCc1ccc(OCC(O)CN(N=O)C(C)C)cc1 (stereo not shown),,"duplex sequencing, refers to: mutation frequency","NMRI mouse, liver","oral, 4 weeks",,lowest dose significant mutation increase,98 mg/kg
Cc1c(Cc2cccc(OC(C)(C)C(=O)O)c2)c2ccc(C(=O)N[C@@H](C)c3cccc(Cl)c3)cc2n1C,,,human liver microsomes,,,half-life,0.639 h
O=S(=O)(NCc1ccncc1)c1ccc(C2CCCCC2)cc1,,,wild-type littermate mouse,0.3 mg/kg,baseline: vehicle,body weight change,2 ± 1 g
COc1cccc(OC)c1-c1cc(C(=O)NC2(C(=O)O)C3CC4CC(C3)CC2C4)nn1-c1ccc(C(=O)N(C)CCCN(C)CCCN(C)C(=O)[C@H](CCCCNC(=O)[C@H](CC(C)C)NC(=O)C2OC2C(=O)O)NC(=O)CN2CCN(CC(=O)[O-])CCN(CC(=O)[O-])CCN(CC(=O)[O-])CC2)cc1C(C)C.[177Lu+3] (mixture of isomers),,,"mouse, HT-29 xenograft, spleen",4 h post injection,,tissue uptake,1.04 %ID/g
C[C@]12C[C@H](c3ccc(S(C)(=O)=O)cc3)C3=C4CCC(=O)C=C4CC[C@H]3[C@@H]1CC[C@@]2(O)C(F)(F)C(F)(F)F,,refers to: compound (parent),"healthy human volunteers, pooled plasma","oral, 5 mg daily, day 28, 48 h",,plasma concentration,7.52 ng/mL
O=C([O-])CN1CCN(CC(=O)[O-])CCN(CC(O)CN(CC(O)CN2CCN(CC(=O)[O-])CCN(CC(=O)[O-])CCN(CC(=O)[O-])CC2)C[C@H](O)[C@@H](O)[C@H](O)[C@H](O)CO)CCN(CC(=O)[O-])CC1.[Gd+3] (stereo partly shown),,"pH-potentiometry, refers to: Gd(HL)M, M = Ca2+",,"25 °C, 0.15 M NaCl",,log K,6.15
CC(=O)n1cc([C@H]2C=C(C(=O)N3CCN(Cc4ccc5c(c4)OCO5)CC3)O[C@@H](OCc3ccc(CO)cc3)C2)c2ccccc21,Trypanosoma cruzi,"reporter mRNA translation, inhibitor, refers to: capped polyadenylated Renilla luciferase mRNA",cell-free extract,concentration not given,baseline: control RNA,relative translation,54.3%
CC[C@H](C)[C@H](NC(=O)[C@H](CCCCN)NC(C)=O)C(=O)N[C@@H](C)C(=O)N[C@@H](C)C(=O)N[C@@H](CC(C)C)C(=O)N[C@@H](CCCCN)C(=O)N[C@@H](CCC(=O)O)C(=O)N[C@@H](CCCCN)C(=O)N[C@H](C(=O)N[C@@H](C)C(=O)N[C@@H](C)C(=O)N[C@@H](CC(C)C)C(=O)N[C@@H](CCCCN)C(=O)N[C@@H](CCC(=O)O)C(=O)N[C@@H](CCCCN)C(=O)N[C@H](C(=O)N[C@H]1CSCc2ccc(cc2)CSC[C@@H](C(=O)NCC(=O)N[C@@H](Cc2c[nH]c3ccccc23)C(N)=O)NC(=O)[C@H](CCCCN)NC(=O)[C@H](CC(C)C)NC(=O)[C@H](C)NC1=O)[C@@H](C)CC)[C@@H](C)CC,,tryptophan fluorescence titration,DOPC/DOPE/cholesterol 2:1:1 liposomes in PBS,,,ΔG of membrane partitioning,-7.17 kcal/mol
CCn1nc(Cl)c2c1-c1cnc(N)c(c1)O[C@H](C)c1cc(F)ccc1-c1nn(C)cc1C2,,,"mouse, plasma","oral, 10 mg/kg, 1 h, 1 doses",,free plasma concentration,0.027 ± 0.0027 µM
O=C(O)CCCOc1ccc([18F])cc1-c1cc(-c2ccccc2C(F)(F)F)n(-c2ccccc2)n1,,OLINDA/EXM extrapolation from mouse,"human adult, red marrow",,,absorbed radiation dose,9.97 µGy/MBq
CC(C)C[C@H](NC(=O)[C@H](CCCCN)NC(=O)C1CCC=CCCC(NC(=O)[C@H](CCCCN)NC(=O)[C@@H](N)CC(C)C)C(=O)N[C@@H](CCCCN)C(=O)NC2CCC=CCCC(NC(=O)[C@H](CCCCN)NC(=O)CNC(=O)[C@H]3CCCN3C(=O)[C@H](CCCCN)NC2=O)C(=O)N[C@@H](CCCCN)C(=O)N1)C(N)=O (stereo partly shown),,RP-HPLC C18,,hydrophobicity,,retention time,14.3 min
N#C[C@@H]1CC(F)(F)CN1C(=O)CNC(=O)c1ccnc2c(NC(=O)[C@H](CCCCNC(=O)CCOCCOCCOCCOCCOCCOCCNC(=O)CN3CCN(CC(=O)[O-])CCN(CC(=O)[O-])CCN(CC(=O)[O-])CC3)NC(=O)CCCc3ccc(I)cc3)cccc12.[177Lu+3],,,"U-87 MG tumour-bearing mice, blood","dose not given, 4 h post-injection, biodistribution",,blood radioactivity,6.43 ± 3.23%
C=CC(=O)N1CCCC(n2c(=O)c3ncccc3n(Cc3ccc(Oc4ccccc4)cc3)c2=O)C1 (stereo not shown),,metabolic stability,"male beagle dog, hepatocytes","1 µM, 1 h",,compound remaining,43.5%
CN1CCC[C@]1(C)/C=C/S(=O)(=O)NC(=O)Nc1c2c(cc3c1CCC3)CC=C2,,,"human, plasma","oral, 12.5 mg twice daily of parent drug, day 14, metabolite of dosed drug",,Cmax at second steady-state dose,6500 ng/mL
COc1ccc([C@@H]2CC(=O)c3c(O)cc(O[C@@H]4O[C@H](CO)[C@@H](O)[C@H](O)[C@H]4O[C@@H]4O[C@@H](C)[C@H](O)[C@@H](O)[C@H]4O)cc3O2)cc1O,,,"Sprague-Dawley rat, male, obese, plasma","intravenous, 4 mg/kg",,Tmax,1.83 ± 1.89 h
COc1ccc(C(N)=O)cn1,,,"Han Wistar rats, male, plasma","oral, 30 mg/kg, 2.00 h",,concentration at time,46 µM
CN1CCC[C@]1(C)/C=C/S(=O)(=O)NC(=O)Nc1c2c(cc3c1C(O)CC3)CCC2 (stereo partly shown),,,"human, plasma","oral, 50 mg twice daily of parent drug, day 14, metabolite of dosed drug",,Cmax at second steady-state dose,9800 ng/mL
[11CH3]N1CCC(NC(=O)c2cc(-c3c(O)cc(O)cc3Oc3ccc([N+](=O)[O-])cc3)on2)CC1,,,"Wistar rat, female, healthy, spleen","intravenous, 18.5 MBq, 60 min",,SUV,1.3 ± 0.1

# For quick reference, copied from above:
Structure (SMILES),target or system,assay,test system,setting,how to read,measurement,value
Cc1c(Cc2cc(Cl)cc(O[C@H](C)C(=O)O)c2)c2ccc(C(=O)N[C@@H](C)c3ccc(C(C)(C)C)cc3)cc2n1CC(C)C,,,human liver microsomes,,,half-life,0.933 h
CN(O)C(=O)CCC(=O)NCCCN(CCCCN(CCCNC(=O)CCC(=O)N(C)O)C(=O)CCC(=O)N(C)O)C(=O)CCC(=O)N(C)O.[89Zr],,radio-TLC,aqueous buffer,"5 d, pH 5, 37 °C, 89Zr-labelled complex, with: DTPA 1000-fold excess",,intact complex,83.2 ± 1.7%
CC(C)(O)c1ncc([S@](N)(=O)=NC(=O)Nc2c3c(cc4c2CCC4)CCC3)s1,,refers to: Gastrointestinal disorders,healthy human volunteers,"oral, dose not given, single dose, all active arms",,subjects with adverse events,17%
Cn1c2cc([S+](C)[O-])sc2c2cnn(Cc3cccc(N)c3)c(=O)c21 (stereo not shown),,,"male BALB/c mouse, plasma","oral, 10 mg/kg, single dose",,AUC(0-t),24300 ng·h/mL
C=CC(=O)Nc1cc(Nc2nccc(-c3cn(C)c4ccccc34)n2)c(OC)cc1N(C)CCNC,,,human plasma,"24 h, storage stability, medium QC sample",,recovery,59.8%
N#Cc1cccc(-c2ccc3ncc(-c4cc(F)cc(F)c4)c(N4CCC(NC(=O)OC5OC(C(=O)O)C(O)C(O)C5O)CC4)c3c2)c1O (stereo not shown),,,"human, faeces","oral, 20 mg, 120 h, 14C-paltusotine dosed",,radioactivity recovered,2.5 %dose
